Results from different studies.
Lines come from different studies, so protocols differ.
EGFR: Epidermal growth factor receptor (EGFR, Homo sapiens, UniProt P00533)
EGFR A750P/del747-749: Epidermal growth factor receptor (EGFR, Homo sapiens, UniProt P00533, A750P/del747-749)
EGFR del752-759: Epidermal growth factor receptor (EGFR, Homo sapiens, UniProt P00533, del752-759)
EGFR L858R: Epidermal growth factor receptor (EGFR, Homo sapiens, UniProt P00533, L858R)

| SMILES | target | test | setting | scale | measurement | value |
| --- | --- | --- | --- | --- | --- | --- |
| CC(C)Cc1ccc(-c2nn(-c3ccc(S(C)(=O)=O)cc3)cc2/C=N/N=c2\[nH]c(-c3ccc([N+](=O)[O-])cc3)cs2)cc1 | EGFR | kinase activity, inhibitor | 0.1 µM | – | inhibition | 32% |
| C=CC(=O)N1CCC(COCC(=O)N2CCN(c3nc(-c4cnc(N)nc4C(F)F)nc(N4CCOC[C@@H]4C)n3)CC2)CC1 | EGFR A750P/del747-749 | KINOMEscan | 1 µM | relative to: DMSO control | remaining binding | 93% |
| COc1cc(N2CCN(C)CC2)ccc1Nc1nc(N)n(C(=O)NCc2c(Cl)cccc2Cl)n1 | EGFR del752-759 | enzyme activity | 10 µM | relative to: control | remaining activity | 18% |
| COc1ccc(-c2nn(-c3ccc(S(C)(=O)=O)cc3)cc2C=N/N=c2\[nH]c(-c3ccc([N+](=O)[O-])cc3)cs2)cc1 | EGFR | kinase activity, inhibitor | 100 µM | – | inhibition | 93.1% |
| CCOc1cc(N2CCN(C)CC2)ccc1Nc1nc(N)n(C(=O)NCc2ccccc2S(=O)(=O)C(C)C)n1 | EGFR L858R | enzyme activity | 10 µM | relative to: control | remaining activity | 10% |
| C=CC(=O)N1CCC(C(=O)NCC(=O)N2CCN(c3nc(-c4cnc(N)nc4C(F)F)nc(N4CCOCC4)n3)CC2)CC1 | EGFR A750P/del747-749 | KINOMEscan | 1 µM | – | remaining binding | 100% |
| COc1ccc(-c2nn(-c3ccc(S(C)(=O)=O)cc3)cc2/C=N/N=c2\[nH]c(-c3ccc(Br)cc3)cs2)cc1 | EGFR L858R | kinase activity, inhibitor | 0.1 µM | – | inhibition | 55% |
| COc1cc(N2CCN(C)CC2)ccc1Nc1nc(N)n(C(=S)NCc2c(Cl)cccc2Cl)n1 | EGFR del752-759 | enzyme activity | 10 µM | relative to: control | remaining activity | 4.4% |
| C[C@@H](c1ccc(-n2cnc3c(N)ncnc32)cc1)N1CCc2nn(C)c(Cc3ccccc3)c2C1=O | EGFR (Homo sapiens, UniProt P00533, L858R/T790M) | KINOMEscan | 0.1 µM | relative to: DMSO control | remaining binding | 97% |

Repeated from above:
| SMILES | target | test | setting | scale | measurement | value |
| --- | --- | --- | --- | --- | --- | --- |
| COc1ccc(-c2nn(-c3ccc(S(C)(=O)=O)cc3)cc2/C=N/N=c2\[nH]c(-c3ccc(Br)cc3)cs2)cc1 | EGFR L858R | kinase activity, inhibitor | 0.1 µM | – | inhibition | 55% |
